Published values from different studies.
Lines come from different studies, so protocols differ. Values joined by “and” are separate records of one study, mostly repeats; a detail may differ. Numbers after ± are the reported error.

For `COc1cccc(OC)c1-c1cc(C(=O)NC2(C(=O)O)C3CC4CC(C3)CC2C4)nn1-c1ccc(C(=O)NCCNC(=O)[C@H](CCCCNC(=O)[C@H](CC(C)C)NC(=O)C2OC2C(=O)O)NC(=O)CN2CCN(CC(=O)[O-])CCN(CC(=O)[O-])CCN(CC(=O)[O-])CC2)cc1C(C)C.[177Lu+3]` (mixture of isomers), the tumour-to-pancreas ratio was 17.5 (mouse HT-29 xenograft; 4 h, biodistribution; reference: tumour over pancreas).
`CN1CCC[C@]1(C)/C=C/S(=O)(=O)NC(=O)Nc1c2c(cc3c1CCC3)CCC2` — result for “subjects with adverse event”: 0% (refers to: alanine aminotransferase increased, probably related; human; oral, 50 mg twice daily, 14 days, multiple ascending dose).
With `C=C(NC(=O)c1csc(-c2nc3c(cc2O)-c2nc(cs2)C(=O)NC(C(C)O)C(=O)NC(=C(C)OC)c2nc(cs2)C(=O)NC2c4nc(cs4)C(=O)NC(COC(=O)c4c5c6c(cccc6n4O)COC(=O)C(OC4CC(C)(O)C(N(C)C)C(C)O4)C2OC5)c2nc-3cs2)n1)C(N)=O` (stereo not drawn) the AUC(0-inf) was 45100 ng·h/mL (cynomolgus monkey, plasma; intravenous, 9 mg/kg, single dose, infusion).
`CC(C)=CCC1=C([O-])C(=O)c2ccccc2C1=O.CC(C)=CCC1=C([O-])C(=O)c2ccccc2C1=O.O.[Cu+2].c1ccc(-c2ccccn2)nc1` — result for “Epc1 cathodic peak potential”: 0.85 V (cyclic voltammetry; CH2Cl2, Bu4NPF6; 0.1 mM; reference: Ag/AgCl sat. KOH).
`CN1Cc2c(NCc3ccc(CN4CCN(c5ccc(C#N)c(F)c5)CC4)cc3)cccc2C(=O)N1C1CCC(=O)NC1=O` (stereo not drawn) has an organ weight of 122 mg (mouse xenograft, stomach; dose not given).
`[123I]c1ccc2nc(-c3ccc(-n4ccnn4)nc3)cn2c1` has a tracer uptake of 0.802 %ID/g (male Wistar rat, stomach; intravenous, 4 MBq, 30 min).
For `CCCC[C@H](NC(=O)CNC(=O)CNC(=O)[C@H](CCCCNC(=O)[C@H](CC(=O)O)NC(=O)C(C)c1ccc(CC(C)C)cc1)NC(=O)CN1CCN(CC(=O)O)CCN(CC(=O)O)CCN(CC(=O)O)CC1)C(=O)N[C@H]1CC(=O)NCCCC[C@@H](C(N)=O)NC(=O)[C@H](Cc2c[nH]c3ccccc23)NC(=O)[C@H](CCCNC(=N)N)NC(=O)[C@@H](Cc2ccccc2)NC(=O)[C@H](Cc2c[nH]cn2)NC1=O` (stereo partly drawn) [lutetium-177 labelled], the tumour-to-tissue ratio was 9.42 (C57 mice, tumour; 2 h; reference: liver).
`COC(=O)C(C)n1nc(Cn2cc3cc(OCC[18F])c(Cl)cc3n2)c2ccccc2c1=O` (racemic) has a parent compound of 39% (rat, plasma; 45 min).
The plasma concentration of `C=C[C@]1(C)C[C@@H](OC(=O)CSc2ccc(NC(=O)c3ccco3)cc2)[C@]2(C)[C@H](C)CC[C@]3(CCC(=O)[C@H]32)[C@@H](C)[C@@H]1O` is reported as 1360 ng/mL and 2250 ng/mL and 1900 ng/mL and 2310 ng/mL and 3140 ng/mL and 1980 ng/mL and 1430 ng/mL and 1660 ng/mL (Mycoplasma gallisepticum-infected chickens, plasma; intramuscular, 80 mg/kg, 3 h).
`Cc1cc(-c2ccc(C(=O)[C@@H]3CCCC[C@H]3C(=O)Nc3cnn4c3C(=O)NCC4)cc2)[nH]n1`: “recovery of radioactivity” 79.3% (human, faeces; oral, 200 mg, mean of six subjects; reference: dose).
`O=C(NS(=O)(=O)c1cccs1)c1cc2ccccc2n1Cc1ccc(Br)c2ccccc12` gave a body weight of 29 g and 29.6 g and 30.2 g and 31.8 g and 25.4 g and 29.4 g (KM mouse, chronic hyperuricaemia model; dose not given, day 9).
`C[C@H](CCC(=O)NCC(=O)O)[C@H]1CC[C@H]2[C@@H]3[C@H](O)C[C@@H]4C[C@H](OS(=O)(=O)O)CC[C@]4(C)[C@H]3CC[C@]12C`: “relative peak deviation” 83.9 ± 13.9% (human, plasma; endogenous control diurnal; reference: daily mean concentration).
`Cc1ncsc1-c1ccc(CNC(=O)[C@@H]2C[C@@H](O)CN2C(=O)[C@@H](NC(=O)COCC(C)(COCCOCCOCCNC(=O)C[C@@H]2N=C(c3ccc(Cl)cc3)c3c(sc(C)c3C)-n3c(C)nnc32)COCCOCCOCCNC(=O)C[C@@H]2N=C(c3ccc(Cl)cc3)c3c(sc(C)c3C)-n3c(C)nnc32)C(C)(C)C)cc1` gave a plasma concentration of 15800 ng/mL and 16500 ng/mL (LC-MS/MS; male C57BL/6 mice, plasma; intravenous, 5 mg/kg, 15 min).
`COc1cccc(OC)c1-c1cc(C(=O)NC2(C(=O)O)C3CC4CC(C3)CC2C4)nn1-c1ccc(C(=O)N(C)CCOCCN(C)C(=O)[C@H](CCCCNC(=O)[C@H](CC(C)C)NC(=O)C2OC2C(=O)O)NC(=O)CN2CCN(CC(=O)[O-])CCN(CC(=O)[O-])CCN(CC(=O)[O-])CC2)cc1C(C)C.[177Lu+3]` (mixture of isomers) gave a tissue uptake of 0.22 %ID/g (mouse, HT-29 xenograft, heart; 168 h post injection).
With `COC(=O)CN1CCN(Cc2cc(-c3nc4ccccc4s3)cc(OC)c2O)CCN(Cc2cc(-c3nc4ccccc4s3)cc(OC)c2O)CC1` the pKa2 was 5.09 (UV-vis spectrophotometric titration; aqueous NaCl 0.1 M; 20 µM, 25 °C, pH 3 to 11).
`C/C(N)=N/C(=N\S(=O)(=O)c1ccc(C(F)(F)F)cc1)N1C[C@H](c2ccccc2)C(c2ccc(Cl)cc2)=N1` gave a Cmax of 1520 ng/mL (beagle dog, plasma; oral, 18 mg/kg).
`CN(C)C(=O)c1cccc(N2Cc3cn(Cc4cc(F)cc(F)c4)nc3C2)c1` has a half-life of 0.8 h (metabolic stability; rat, liver microsomes).
Under “body weight decrease”, `CC[C@H](C)NCC(SS(=O)(=O)O)c1ccccc1` (stereo partly drawn) is recorded as -9.51% (Swiss Webster mice, Schistosoma mansoni infected; 100 mg/kg; reference: vehicle control).
`C=CC(=O)Nc1cc(Nc2nccc(-c3cn(C)c4ccccc34)n2)c(OC)cc1N(C)CCNC` gave a recovery of 61.6% (storage stability; human dried blood spot; 10 d, on ice, LLOQ level).
With `Cc1[nH]nc2c1N=C(c1ccccc1Cl)c1cnc(N3CCOCC3)cc1N2` the scaled CLint was 78.3 mL/min/kg (metabolic stability; monkey, liver microsomes; 1 µM, pH 7.4).
`CC[C@H](C)[C@@H]1NC(=O)[C@H](Cc2ccc(O)cc2)NC(=O)CCCSC[C@@H](C(=O)N(CC(=O)N[C@@H](CC(C)C)C(=O)NCC(N)=O)Cc2ccc(F)cc2)NC(=O)[C@H](CC(N)=O)NC(=O)[C@H](CCC(N)=O)NC1=O` — result for “adverse drug reactions”: 0% (human; intranasal, 50 µg single dose).
`CC(C)(O)c1ncc([S@](N)(=O)=NC(=O)Nc2c3c(cc4c2CCC4)CCC3)s1` — result for “subjects with gastrointestinal adverse events”: 40% (healthy human subjects; oral, 100 mg, capsule, fasted).
`CCCCN1C(=O)c2cccc3c(NCCCCCCCCN4CCOCC4)ccc(c23)C1=O` gave a fluorescence lifetime of 10.3 ns (DMF).
The defluorination of `CCCC[C@H](NC(=O)COCCOCCNC(=O)CN1CCN(CC(=O)O)CCN(CC(=O)O)CC1)C(=O)N[C@H]1CC(=O)NCCCC[C@@H](C(N)=O)NC(=O)[C@H](Cc2c[nH]c3ccccc23)NC(=O)[C@H](CCCNC(=N)N)NC(=O)[C@@H](Cc2ccccc2)NC(=O)[C@H](Cc2c[nH]cn2)NC1=O` [fluorine-18 labelled] is reported as ~10% (HPLC; C57 mice melanoma-bearing, urine; 1 h).
For `CCCCN1C(=O)c2cccc3c(NCCCCN4CCOCC4)ccc(c23)C1=O`, the fluorescence lifetime was 10.4 ns (DMSO).
For `COc1ccnc(C(=O)N[C@H]2COC(=O)[C@H](Cc3ccccc3)[C@@H](OC(=O)C(C)C)[C@H](C)OC2=O)c1O`, “Freundlich coefficient KF” read 303 mL/g (soil adsorption; soil; pH 5.9, organic carbon 0.9 %).
`CCCCN1C(=O)c2cccc3c(NCCCCCCCCCCN4CCOCC4)ccc(c23)C1=O` has an emission maximum of 525 nm (DMF).
`Cc1ccc(CN2C(=O)/C(=N\c3ccc(Cl)cc3Br)c3ccccc32)cc1` has an MCH of 14.8 ± 0.18 pg (mouse, blood; 150 mg/kg).
`CCCCN1C(=O)c2cccc3c(NCCCN4CCOCC4)ccc(c23)C1=O` gave an emission maximum of 510 nm (dichloromethane).
`O=C(NC1CCCCC1)c1cccc(N2Cc3cn(Cc4ccc(F)cc4)nc3C2)c1` gave a half-life of 5.15 h (metabolic stability; rat, liver microsomes).
With `CCCCN1C(=O)c2cccc3c(NCCCCCCN4CCOCC4)ccc(c23)C1=O` the emission maximum was 524 nm (DMF).
`COc1ccc(Nc2nc(Nc3ccc(OCCOCCOCC[18F])cc3)ncc2Br)cc1` has a tissue uptake of 3.07 ± 0.1 %ID/g (ICR mice, S180 tumour-bearing, bone; intravenous, 370 kBq, 30 min).
`O=C(Nc1cnccc1-c1ccc([18F])cc1)c1ccnc(NC(=O)C2CC2)c1` has an SUV of 0.21 (FVB/NJ mouse, both sexes, brain; intravenous, 20 min).
With `CC(=O)N([O-])CCCCCNC(=O)CCC(=O)N([O-])CCCCCNC(=O)CCC(=O)N([O-])CCCCCN.[89Zr+4]` the intact complex was 98.4 ± 1.6% (radio-TLC; aqueous buffer; 7 d, pH 7.2, 37 °C, 89Zr-labelled complex, together with: CaCl2 10-fold excess).
The SUV of `O=C(Nc1cnccc1-c1ccc([18F])nc1)c1ccnc(NC(=O)C2CC2)c1` is reported as 0.024 (mice, transgenic, GSK-3β, early-stage, thalamus; intravenous, dose not given, 120 min).
For `CCCCN1C(=O)c2cccc3c(NCCN4CCOCC4)ccc(c23)C1=O`, the fluorescence lifetime was 10.2 ns (DMSO).
Under “dose fraction in skim milk”, `CS(=O)(=O)c1cc(Cl)cc(-c2cc(Cl)c(Cl)cc2Cl)c1Cl` is recorded as 7.54% (whole cow milk; 500 nM nominal).
`Cc1nn(-c2nc3c(F)cc(F)cc3s2)c(O)c1C(c1ccc(C(F)(F)F)cc1)c1c(C)nn(-c2nc3c(F)cc(F)cc3s2)c1O` has a plasma concentration of 5730 ng/mL and 4510 ng/mL and 6710 ng/mL (ICR mouse; intravenous, 5 mg/kg, 2.00 h).
The excreted dose of `CC(C)C[C@H](NC(=O)[C@@H](CCCCNC(=O)[C@@H](Cc1ccccc1)NC(=O)CCCCCCCNC(=O)CN1CCN(CC(=O)O)CCN(CC(=O)O)CCN(CC(=O)O)CC1)NC(=O)[C@H](Cc1ccc(O)cc1)NC(=O)[C@H](CO)NC(=O)[C@H](Cc1c[nH]c2ccccc12)NC(=O)[C@H](Cc1c[nH]cn1)NC(=O)[C@@H]1CCC(=O)N1)C(=O)N[C@@H](CCCNC(=N)N)C(=O)N1CCC[C@H]1C(=O)NCC(N)=O` [indium-111 labelled] is reported as 82.2 ± 1.54% (male athymic nude mice, DU-145 prostate cancer xenograft, urine; intravenous, 0.037 MBq, 1 h).
For `CCC1CNC(CC)CN(C(C(=O)[O-])c2ccc(C(=O)[O-])cc2)C(CC)CN(CC(=O)[O-])C(CC)CN1.[Mn+2]` (stereo not drawn), the Mn content was 0.6 ± 0.07 µg/g (ICP-MS; BALB/c mouse, lung; intravenous, 0.05 mmol/kg, 30 min, without anaesthesia).
The tumour-to-spleen ratio of `COc1cccc(OC)c1-c1cc(C(=O)NC2(C(=O)O)C3CC4CC(C3)CC2C4)nn1-c1ccc(C(=O)N(C)CCOCCOCCN(C)C(=O)[C@H](CCCCNC(=O)[C@H](CC(C)C)NC(=O)C2OC2C(=O)O)NC(=O)CN2CCN(CC(=O)[O-])CCN(CC(=O)[O-])CCN(CC(=O)[O-])CC2)cc1C(C)C.[177Lu+3]` (mixture of isomers) is reported as 4.52 (mouse HT-29 xenograft; 72 h, biodistribution; reference: tumour over spleen).
`O=c1cc(/C=C/c2ccc(N3CCCC3)cc2)oc(/C=C/c2ccc(N3CCCC3)cc2)c1` — result for “radiative rate constant”: 1.1e+08 s⁻¹ (nanoparticles in acetonitrile/water 1:19 v/v).

Some of these lines once more:
`CC[C@H](C)[C@@H]1NC(=O)[C@H](Cc2ccc(O)cc2)NC(=O)CCCSC[C@@H](C(=O)N(CC(=O)N[C@@H](CC(C)C)C(=O)NCC(N)=O)Cc2ccc(F)cc2)NC(=O)[C@H](CC(N)=O)NC(=O)[C@H](CCC(N)=O)NC1=O` — result for “adverse drug reactions”: 0% (human; intranasal, 50 µg single dose).
`CC(C)(O)c1ncc([S@](N)(=O)=NC(=O)Nc2c3c(cc4c2CCC4)CCC3)s1` — result for “subjects with gastrointestinal adverse events”: 40% (healthy human subjects; oral, 100 mg, capsule, fasted).
`CCCCN1C(=O)c2cccc3c(NCCCCCCCCN4CCOCC4)ccc(c23)C1=O` gave a fluorescence lifetime of 10.3 ns (DMF).
The defluorination of `CCCC[C@H](NC(=O)COCCOCCNC(=O)CN1CCN(CC(=O)O)CCN(CC(=O)O)CC1)C(=O)N[C@H]1CC(=O)NCCCC[C@@H](C(N)=O)NC(=O)[C@H](Cc2c[nH]c3ccccc23)NC(=O)[C@H](CCCNC(=N)N)NC(=O)[C@@H](Cc2ccccc2)NC(=O)[C@H](Cc2c[nH]cn2)NC1=O` [fluorine-18 labelled] is reported as ~10% (HPLC; C57 mice melanoma-bearing, urine; 1 h).
For `CCCCN1C(=O)c2cccc3c(NCCCCN4CCOCC4)ccc(c23)C1=O`, the fluorescence lifetime was 10.4 ns (DMSO).
For `COc1ccnc(C(=O)N[C@H]2COC(=O)[C@H](Cc3ccccc3)[C@@H](OC(=O)C(C)C)[C@H](C)OC2=O)c1O`, “Freundlich coefficient KF” read 303 mL/g (soil adsorption; soil; pH 5.9, organic carbon 0.9 %).
`CCCCN1C(=O)c2cccc3c(NCCCCCCCCCCN4CCOCC4)ccc(c23)C1=O` has an emission maximum of 525 nm (DMF).
